Assay results pooled from the literature.
Compare with care: the assays were run in different laboratories. Several values in a cell are separate wells, animals, samples, runs or records. Numbers after ± are the reported error.

SMILES = O=c1[nH]c(=O)n([C@@H]2O[C@H](CO)[C@@H](O)[C@@H]2F)cc1[125I]; system = nude mice, RG2 tumour, wild-type RG2 tumour; setting = 2 h post injection; quantity = tumour uptake; value = 0.73 ± 0.17 %ID/g
SMILES = C=CCn1c(=O)c2cnc(Nc3ccc(N4CCN(C)CC4)cc3)nc2n1-c1ccc2c(n1)[C@@](O)(CC)CC2; system = OVCAR-3 xenograft, NOD/SCID mice; setting = oral, 80 mg/kg, day 56, once daily intermittent; quantity = tumour volume difference; value = 127 ± 41.6 mm3
SMILES = C=CC(=O)Nc1cc(Nc2ncc(C(=O)OC(C)C)c(-c3cn(C)c4ccccc34)n2)c(OC)cc1N(C)CCN(C)C; system = NCI-H2073 xenograft, EGFR wild type, BALB/c nude mice; setting = oral, 30 mg/kg once daily, 21 days, regression if TGI above 100 %; quantity = tumour regression; value = 22.3%
SMILES = COc1cc(N2CCC(N3CCN(C)CC3)CC2)ccc1Nc1ncc(Cl)c(Nc2ccccc2P(C)(C)=O)n1; system = nude mice, NCI-H3122 xenograft; setting = intraperitoneal, 10 mg/kg every other day, day 13; quantity = tumour volume; value = 163 mm3 and 305 mm3 and 155 mm3 and 294 mm3 and 313 mm3
SMILES = CCNc1nc2c(c(N3CC(=O)Nc4cc(OC)ccc43)n1)CCC2; system = mice, A-375/TxR xenograft; setting = intravenous, 2 mg/kg twice weekly, 3 weeks; quantity = tumour growth inhibition; value = 62.3%
SMILES = O=c1[nH]c(=O)n([C@@H]2O[C@H](CO)[C@@H](O)[C@@H]2F)cc1CCC[18F]; system = nude mice, RG2 tumour, HSV1-tk expressing RG2 tumour; setting = 2 h post injection; quantity = tumour uptake; value = 0.2 ± 0.11 %ID/g
SMILES = CCCCCCCCCCCCCC(=O)N[C@@H](CCSC)C(=O)N[C@@H](C)C(=O)N[C@@H](CO)C(=O)N[C@@H](CCCNC(=N)N)C(=O)NCC(=O)N[C@@H](C)C(=O)N[C@@H](CC(C)C)C(=O)N[C@@H](CCCNC(=N)N)C(=O)N[C@@H](CCCNC(=N)N)C(=O)N[C@@H](CS)C(=O)N[C@@H](CC(C)C)C(=O)N[C@@H](CO)C(=O)N1CCC[C@H]1C(=O)NCC(=O)N[C@@H](CC(C)C)C(=O)N1CCC[C@H]1C(=O)N[C@@H](CCCNC(=N)N)C(=O)N[C@@H](CC(C)C)C(=O)N[C@@H](CC(C)C)C(=O)N[C@@H](Cc1c[nH]cn1)C(=O)N[C@@H](CC(C)C)C(=O)N[C@@H](CO)C(=O)N[C@@H](CCCNC(=N)N)C(=O)NCC(=O)N[C@@H](CC(C)C)C(=O)N[C@@H](C)C(N)=O; system = NOD-SCID mice, MDA-MB-231 orthotopic xenograft; setting = intratumoral, 10 mg/kg every other day; quantity = tumour mass; value = decreased
SMILES = O=c1[nH]c(=O)n([C@@H]2O[C@H](CO)[C@@H](O)[C@@H]2F)cc1CCCCC[18F]; system = nude mice, RG2 tumour, HSV1-tk expressing RG2 tumour; setting = 2 h post injection; quantity = tumour uptake; value = 0.17 ± 0.03 %ID/g
SMILES = NCc1cc2c(cc1F)C(=O)N(C1CCC(=O)NC1=O)C2 (stereo not drawn); system = mice, HCC PDX models; setting = oral, 100 mg/kg twice daily, 21 days, 8 of 10 models; quantity = tumour growth inhibition; value = 16 to 100%
SMILES = CCCCC(=O)Nc1ccc(-c2ccc3ncn(CCC)c(=O)c3c2)cn1; system = mice, HCC827 xenograft; setting = oral, 10 mg/kg daily, six days per week, three weeks; scale = relative to: vehicle; quantity = tumour growth inhibition; value = 46.5%
SMILES = N=C(N)NCCC[C@@H](NC(=O)CCOCCOCCNC(=O)[C@H](CCCCNC(=O)CC[C@H](NC(=O)c1ccc(NCc2cnc3nc(N)[nH]c(=O)c3n2)cc1)C(=O)O)NC(=O)CO/N=C/[C@H](F)[C@@H](O)[C@H](O)[C@H](O)CO)C(=O)NCC(=O)N[C@H](CC(=O)O)C(N)=O [fluorine-18 labelled]; system = female nude mice, MDA-MB-231 xenograft, tumour; setting = intravenous, 2.5 h; quantity = tumour uptake; value = 2.09 ± 0.7 %ID/g
SMILES = O=c1[nH]c(=O)n([C@@H]2O[C@H](CO)[C@@H](O)[C@@H]2F)cc1CCCC[18F]; system = nude mice, RG2 tumour, wild-type RG2 tumour; setting = 2 h post injection; quantity = tumour uptake; value = 0.16 ± 0.04 %ID/g
SMILES = C[C@@H]1COCCN1c1cc([C@]2(O)C[C@H]3CC[C@@H](C2)O3)c2cnn(-c3cc[nH]n3)c2n1; system = ATM-deficient gastric cancer PDX mice; setting = 10 mg/kg once daily for 7 days, day 42; quantity = tumour growth inhibition; value = 107 ± 1.5%
SMILES = C=CC(=O)Nc1cc(Nc2nccc(Nc3cc(Cl)c(F)cc3C(C)(C)O)n2)c(OC)cc1N1CC[C@@H](N(C)C)C1; system = NCI-H2073 EGFR SVD knock-in xenograft, BALB/c nude mice; setting = oral, 50 mg/kg twice daily, 21 days, regression if TGI above 100 %; quantity = tumour regression; value = 87.5%
SMILES = CCCC[C@H]1C(=O)N(C)[C@@H](CCCC)C(=O)N[C@@H](CCCCNC(=O)CN2CCN(CC(=O)O)CCN(CC(=O)O)CC2)C(=O)N[C@H](C(=O)NCC(N)=O)CSCC(=O)N[C@@H](Cc2ccc(O)cc2)C(=O)N(C)[C@@H](C)C(=O)N[C@@H](CC(N)=O)C(=O)N2CCC[C@H]2C(=O)N[C@@H](Cc2c[nH]cn2)C(=O)N[C@@H](CCC(=O)O)C(=O)N2C[C@H](O)C[C@H]2C(=O)N[C@@H](Cc2c[nH]c3ccccc23)C(=O)N[C@@H](CO)C(=O)N[C@@H](Cc2cn(CC(=O)O)c3ccccc23)C(=O)N1C [gallium-68 labelled]; test = PET; system = BALB/c nude mice U-87 MG xenograft; setting = with: excess unlabelled anti-PD-L1 antibody; quantity = tumour uptake; value = decreased

A few entries again:
SMILES = NCc1cc2c(cc1F)C(=O)N(C1CCC(=O)NC1=O)C2 (stereo not drawn); system = mice, HCC PDX models; setting = oral, 100 mg/kg twice daily, 21 days, 8 of 10 models; quantity = tumour growth inhibition; value = 16 to 100%
